Experimental data of several laboratories.
A part holds a random share of what one study measured.

Study 1
Target: Sal-like protein 4, full length isoform B (SALL4, Homo sapiens, UniProt Q9UJQ4-2, residues 1-616)
Technique: universal PBM
Molecule type: double-stranded DNA, one strand shown
Medium: in vitro
Concentration: not given
Notes: 8-mer, flanks averaged, mean of replicates
Direction: higher = stronger binding
Quantity: E-score
GGGAAACC: -0.185
AATGTGGT: 0.114
CTCTTAGC: -0.163
AGTACCTC: -0.107
ACACCCAG: -0.301
ACTTCGGA: 0.0597
GATAAAGC: 0.103
CTTTAGGC: -0.024

Study 2
Target: Replicase polyprotein 1ab, polymerase (rep, Severe acute respiratory syndrome coronavirus 2, UniProt P0DTD1)
Read-out: enzyme activity
Action: inhibitor
Concentration: 20 µM
Quantity: inhibition
Cc1sc2c(c1C)C(c1ccc(Cl)cc1)=N[C@@H](CC(N)=O)c1nnc(C)n1-2: 0.91%
CC(C)(F)C[C@H](N[C@@H](c1ccc(-c2ccc(S(C)(=O)=O)cc2)cc1)C(F)(F)F)C(=O)NC1(C#N)CC1: -4.01%
CCCCC(=O)O[C@]1(C(=O)CO)CC[C@H]2[C@@H]3CCC4=CC(=O)CC[C@]4(C)[C@H]3[C@@H](O)C[C@@]21C: -7.95%
Cc1cccc(-c2[nH]c(C(C)(C)C)nc2-c2ccc3nccnc3c2)n1: 11.4%
CCNC1=Nc2ccc(Cl)cc2C(C)(c2ccccc2)O1 (centres unmarked): -11.5%
C[C@]12C=CC(=O)C=C1CC[C@H]1[C@@H]3C[C@@H](O)[C@](O)(C(=O)CO)[C@@]3(C)C[C@H](O)[C@@]12F: 2.54%
CN([C@@H](Cc1ccc(OS(=O)(=O)c2cccc3cnccc23)cc1)C(=O)N1CCN(c2ccccc2)CC1)S(=O)(=O)c1cccc2cnccc12: 6.01%
Cc1ncc(C)n2nc([C@@H]3C[C@H]3c3nc4c5cccnc5ccn4c3C)nc12: -0.63%
COc1cccc2c1C(=O)c1c(O)c3c(c(O)c1C2=O)C[C@@](O)(C(C)=O)C[C@@H]3O[C@H]1C[C@H](N)[C@H](O)[C@H](C)O1: 61.8%
COc1cc(Br)c(S(=O)(=O)Nc2ccc(Cl)c(O[C@@H]3CCN(C)C3)c2)cc1OC: -0.92%
CC(=O)N[C@@H](CSC/C=C(\C)CC/C=C(\C)CCC=C(C)C)C(=O)O: 3.6%
Cc1ccc(NC2=CC(=O)c3sc(C)nc3C2=O)cc1: 1.78%
O=[N+]([O-])c1ncc[nH]1: 0.73%
CC[C@H](CC[C@@H](C)[C@H]1CC[C@H]2[C@@H]3CC=C4C[C@@H](O)CC[C@]4(C)[C@H]3CC[C@]12C)C(C)C: -3.79%
CC(=O)O[C@@H]1C[C@H]2C(C)(C)C(=O)C=C[C@]2(C)[C@H]2CC[C@@]3(C)[C@H](c4ccoc4)OC(=O)[C@H]4O[C@]43[C@@]21C: 11.1%
COc1ccc(C(=O)c2ccccc2O)c(O)c1: 3.07%
C[C@@H](c1nc(-c2ccc(C#N)cc2)cs1)[C@](O)(Cn1cncn1)c1cc(F)ccc1F: 5.04%
N[C@@H](CC(=O)N1CCn2c(nnc2C(F)(F)F)C1)Cc1[nH]nc2c(F)c(F)ccc12: 44.6%
COC[C@@H](NC(C)=O)C(=O)NCc1ccccc1: -4.36%
CC1CCN(C(c2ccc(F)cc2)c2ccc(C(C)C(=O)O)cc2-c2ccc(C(F)(F)F)cc2)CC1 (centres unmarked): 0.64%
CCN(CC)C(=S)S: -5.73%
N[C@@H](Cc1ccc(O)cc1)C(=O)NCC(=O)NCC(=O)O: -9.22%
C[C@@]12C[C@@]3(O)O[C@@H](O1)[C@]1(COC(=O)c4ccccc4)[C@H]3C[C@@]12O[C@@H]1O[C@H](CO)[C@@H](O)[C@H](O)[C@H]1O: -2.93%
CC(C)[C@H](CO)Nc1nc(Nc2ccc(C(=O)O)c(Cl)c2)c2ncn(C(C)C)c2n1: -4.95%
COc1cccc(Nc2ncnn3ccc(CN4CC[C@@H](N)[C@H](O)C4)c23)c1: -0.18%

Study 3
Target: Replicase polyprotein 1ab, main protease (rep, Severe acute respiratory syndrome coronavirus 2, UniProt P0DTD1)
Read-out: enzyme activity
Action: inhibitor
Concentration: 20 µM
Notes: hit confirmation, no DTT
Quantity: inhibition
COc1cccc(C(=O)CCN[C@@H](C)[C@H](O)c2ccccc2)c1: 90.5%
O=C(O)c1ccc(N2C(=O)/C(=C\c3ccc(-c4ccc([N+](=O)[O-])cc4)o3)C=C2c2ccccc2)cc1: 51.1%
CCCCC/C=C\C/C=C\C/C=C\C/C=C\CCCC(=O)O: 56.3%
CCC[C@H](NC(=O)[C@@H]1[C@H]2CCC[C@H]2CN1C(=O)[C@@H](NC(=O)[C@@H](NC(=O)c1cnccn1)C1CCCCC1)C(C)(C)C)C(=O)C(=O)NC1CC1: 54.5%

Study 4
Cell line: HEK-293T/ACE2
Read-out: pseudovirus infection
Organism: VSV pseudotyped with SARS-CoV-2 spike
Concentration: 10 µM
Time: 16 h
Baseline: vehicle-treated
Quantity: GFP-positive cells
CCn1cc(C(=O)O)c(=O)c2cc(F)c(N3CCNC(C)C3)c(F)c21 (centres unmarked): 78%
CCCc1nc2c(C)cc(-c3nc4ccccc4n3C)cc2n1Cc1ccc(-c2ccccc2C(=O)O)cc1: 61.9%
O=C1[C@H](CC[C@H](O)c2ccc(F)cc2)[C@@H](c2ccc(O)cc2)N1c1ccc(F)cc1: 76.5%
CCN(C)C(=O)Oc1cccc([C@H](C)N(C)C)c1: 63.7%
C[C@@H](NCCCc1cccc(C(F)(F)F)c1)c1cccc2ccccc12: 23.7%

Study 5
Target: Histone acetyltransferase KAT6A, both winged helices, GST fusion (KAT6A, Homo sapiens, UniProt Q92794, residues 1-181)
Technique: protein binding microarray
Molecule type: double-stranded DNA, one strand shown
Medium: in vitro
Concentration: not given
Notes: 8-mer, flanks averaged, mean of 2 arrays, mostly near background
Baseline: not given
Direction: higher = stronger binding
Quantity: E-score
Residues (chain): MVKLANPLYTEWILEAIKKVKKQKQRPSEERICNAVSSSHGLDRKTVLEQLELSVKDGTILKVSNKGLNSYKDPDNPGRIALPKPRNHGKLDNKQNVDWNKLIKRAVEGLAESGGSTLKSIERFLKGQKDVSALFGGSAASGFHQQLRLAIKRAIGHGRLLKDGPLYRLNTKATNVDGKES
AGCAAATA: -0.0908
GGAGCGAC: 0.1
CACGTGAC: -0.0401
CAATAATC: 0.0129
AGACTGGG: -0.217
ACGTAAGT: -0.0546
GTTTGCGA: 0.0945
CTCTTAGC: -0.0418

Some of these lines once more (study 5):
GTTTGCGA: 0.0945
CTCTTAGC: -0.0418
ACGTAAGT: -0.0546
CACGTGAC: -0.0401
AGCAAATA: -0.0908
AGACTGGG: -0.217
CAATAATC: 0.0129
GGAGCGAC: 0.1
